Measurements of several laboratories.
Parts stem from different laboratories: compare values within a part only. Substitutions count along the parent as printed.

Study 1 — technique: RNA Bind-n-Seq; form: RNA; medium: in vitro; concentration: 200 nM; setting: whole 134-nt RNA, ends assumed; with: 150 mM LiCl; reference: input library; reading: higher = stronger binding; all molecules: 7-deaza-guanosine replaces G
Target: Fragile X messenger ribonucleoprotein 1, C-terminal low-complexity region (Fmr1, Mus musculus, UniProt P35922)
Constant ends, left off below: GGGAGUUCUACAGUCCGACGAUC … UGGAAUUCUCGGGUGUCAAGG
Sequence	log2 enrichment
UUGGCUCGAGAGAUUGAAUCAAGCCCCCAGUACCGCCUACGGAUCGCCAUGGAGAACGACGAUGGGCGCACUGAAGAGGAGAAGCACAGU	-0.859
AGUCCUGUGCUACACAUCGUAUGUACCGAAUCGGCCCCGGGCCCCGGGGCCCCGGGGAAAGUAUUAUGUUACGCCGUUCGGAUCUGCACU	-3.33
AAGUCCUGUGCUACACAUCGUAUGUACCGAAUCGGGUUUUUGGGUGGGAAAAAGGGAAAGUAUUAUGUUACGCCGUUCGGAUCUGCACUU	-1.12
CACAGACAACACGCACCCACACAGACACAGAGGGAAGGGGUUGGGAUGGGGACAGGGUGCACAGCAGGGCGGGGUAGGACCCCAGCCCAU	-0.0664
GCAGGAAGUAAAAACAGAUGGAAAUGCUUCGGAUAGUGGCAGGGGUGGGGGUUGCUAAGGAAAGGGUGGGAUGGGAGUGGGUAAAGAGUU	1.25
UAACUUUAGAGGAGGAUCUGAUGGAUAUGGCAGUGAACGUGGAUUUGGGGAUGGCUAUAAUGGGUAUGGAGGAGGACCUGGAGGUGGCAA	0.286
UGGCCCUGGUGGCAUGCGGGGAGGAAGAGGUGGCCUCAUGCAUCGUGGUGGUCCCGGUGGAAUGUUCAGAGGUGGCCGUGGUGGAGACAG	-0.421
CACAGACAACACGCACCCACACAGACACAGAGGGAUGGGGUUGGGAUGGGGACAGGGUGCACAGCAGGGCGGGGUAGGACCCCAGCCCCU	-0.00418
GUGCUACACAUCGUAUGUACCGAAUCGGGGAAAAAAAGGGGAAAAAAAGGGGUUUUUUUGGGGAAAGUAUUAUGUUACGCCGUUCGGAUC	-0.649
UUUGAGGUCAAACGCCGCGGGGAACUGCAGCUGAUUAAGAUCUUCCAAUCCUCGGUGUUUGAGGCCUUCCUCAAGGGCAGCACGCUGGAA	-2.61
CUCAAGUCCUGUGCUACACAUCGUAUGUACCGAAUCGGUUUGGUUUUUGGUGGAAAGUAUUAUGUUACGCCGUUCGGAUCUGCACUUCCA	0.136

Study 2 — target: CCND3, cyclin fold, Cln2 fusion (human); technique: yeast growth competition, sequencing; medium: yeast; setting: weak parent motif; reference: not given; reading: higher = stronger binding
Parent: DTL docking peptide (human); PSSMRKICTYFHR; partner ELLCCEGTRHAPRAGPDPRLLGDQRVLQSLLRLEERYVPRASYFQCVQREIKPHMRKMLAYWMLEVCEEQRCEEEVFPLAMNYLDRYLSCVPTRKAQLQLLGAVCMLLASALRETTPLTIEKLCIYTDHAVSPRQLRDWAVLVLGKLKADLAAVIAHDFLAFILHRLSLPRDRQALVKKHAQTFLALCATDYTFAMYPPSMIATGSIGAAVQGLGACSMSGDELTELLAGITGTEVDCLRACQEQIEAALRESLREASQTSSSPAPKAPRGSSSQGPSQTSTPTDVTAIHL
Change	normalised enrichment score
R13A	-0.175
F11A	0.082
S2A	-0.9
C8A	-0.322
Y10A	0.246
S3A	-0.624

Study 3 — technique: protein-binding microarray; form: double-stranded DNA, one strand shown; medium: in vitro; concentration: 2540 nM top; setting: 60-bp whole probe; with: salmon DNA 0.4 mg/ml; reference: random background probes; reading: higher = stronger binding; constant ends, left off below: GCCTAGCAC … GTCTTGATTCGCTTGACGCTGCTG
Target: Interferon regulatory factor 3, full length, phosphomimetic (IRF3, Homo sapiens, UniProt Q14653, residues 1-427, S386D/S396D/S398D/S402D/T404D/S405D)
Residues (chain): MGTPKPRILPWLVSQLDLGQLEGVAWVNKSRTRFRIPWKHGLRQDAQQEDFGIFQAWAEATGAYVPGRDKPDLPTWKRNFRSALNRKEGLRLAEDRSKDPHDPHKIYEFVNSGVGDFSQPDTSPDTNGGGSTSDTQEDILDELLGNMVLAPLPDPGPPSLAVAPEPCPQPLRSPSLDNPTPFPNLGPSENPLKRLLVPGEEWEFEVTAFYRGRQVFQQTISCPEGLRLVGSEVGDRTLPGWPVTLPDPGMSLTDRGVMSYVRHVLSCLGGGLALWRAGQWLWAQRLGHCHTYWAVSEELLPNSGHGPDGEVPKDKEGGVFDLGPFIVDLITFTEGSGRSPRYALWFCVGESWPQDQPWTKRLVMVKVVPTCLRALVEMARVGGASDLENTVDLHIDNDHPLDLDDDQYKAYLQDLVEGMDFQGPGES
Sequence	fitted relative affinity [z-score]
TCACATTTTCTCTTATTACTGTGCTAG	1.75
GACGGTTTCCGTTTCCTGACGTGCTAG	8.83
GGCGGACTGCTTCTCCTGACGTGCTAG	-0.429
GACGGTTTCGGTATCGGGAGGTGCTAG	8.46
GACGATTTCGGGTTGCGAGACGTGCTA	1.89
GACGGACTGGCGACTGGGGACGTGCTA	-0.965
ATAGAACTGAGTATCGATTAGTGCTAG	0.238
GACGGTTTCTTTTTCCTGACGTGCTAG	4.94
TCAATTAGAATTTTCATACTGTGCTAG	0.699
TTAGATTTTAGTCTCGATTAGTGCTAG	0.656
TTAGGTTTCGGTCTCGGGTAGTGCTAG	8.56
TAAGGTTTCCTTATCCTTTAGTGCTAG	7.91
CTTCACATATAATTTTGTCATGTGCTA	0.525
TCAATGTTACATTTATAACTGTGCTAG	1.11
GACGGTTTCGGGTGTCGGGACGTGCTA	3.81
GACGAACTGAGACTGGATACGTGCTAG	0.0334
TTTCTCTCATTATGTGGGTTGTGCTAG	2.76
TTAGATATCAGACTTGATTAGTGCTAG	0.714
GGTATTATTTATTGTAGCCTCGTGCTA	0.999
TTAGGTATCGTTATCGGTTAGTGCTAG	3.11
ATGTTTTTCATTGTTTTTCAGTGCTAG	1.05
TTAGGTTTCAGTCTCGATTAGTGCTAG	5.16

Study 4 — technique: RNA Bind-n-Seq; form: RNA; medium: in vitro; concentration: 365 nM; reference: no-protein control; reading: higher = stronger binding
Target: RNA binding protein fox-1 homolog 2, RRM domain, GST-SBP tag (RBFOX2, Homo sapiens, UniProt O43251-10, residues 100-194)
Setting: natural RNA segment, single round, ends assumed
Constant ends, left off below: GGGAGUUCUACAGUCCGACGAUC … UGGAAUUCUCGGGUGCCAA
Construct (chain): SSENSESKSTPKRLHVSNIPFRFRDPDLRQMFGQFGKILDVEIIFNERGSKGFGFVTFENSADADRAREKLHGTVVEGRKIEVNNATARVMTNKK
Sequence	RBNS enrichment (R)
CACGGGAUAGCCUUUGCUGUGCCCUGUGGCCUGGCCGCAGUGAGGCAUGUAUCUGUAGUUCCUUGCUGAGUAACAAGAAGUAAAAUACAUGUUUGUAUAUCUACAUUUAC	0.369
GUGCAUUGUAUCUUUUUCAUAAUGGUACUAUUUAGAAGCCCAGUUAGUCUUACUGAGCUUAUGCUUCACUCCUUUAUGUUUAACCAUGUGUCUACAAGAAUAAGUUUGUU	0.438
GGAGACAUGCCACCAACAUAGACAGGUUGGUCACCGAUGGCCAUUUUCAUAAAUAUUUCUGUGGGCCAUUUUGCUUUGCUUGUUUGUGAAAAGAAUUGUCUCUAAUUAUU	0.548
GUAGUGGCAGAGGACUGAGGGUACCUGCACAGUUUGAUUCUUUUCCACGUGUAAGUCUCCAUUGCAGAAUUGUCGUGCUUUGAGAAAACACCUGAGGCAGUGUGGGAGUU	0.483
UACUGCACACAGAUUGUGUACUGCACCCCAGUCCAGGUGACUGGUACCCACUCGAGUUGUGCCGUGCACAACCUGUCCAGUAUAUGCAUGUGGUGGCCCUACUGACUGGU	11
CCCUUGGCUCCCUUGGGCAGACAGCAGGCUUAGGCCAUUGAUAUCGCAGUUCUUCCUAUCAGCUUCAGUGACCCAGGGUCUGAACUGCCUCCAUCCUAGGGCAACCUGGG	0.247
GCCAGGGCCGUGCCAACUUAUGAAGACACUGCAGCUUGAGAGGGGCUUUGCUGAGGCUUCCCCUUGGCCAUGUGAAAGCCCGCCUUGUUGCCUGCUUUGUGCUUUCUGCA	1.73
AAGUGCAUUUAAUAUUGGUAAUUUAAUGAAAAGCAUUCCUUGCCCAAUGGAUGUAAACAUUUUUGAAAGAAUAAAGCAGAAUUAUAUAAUAUGAAAUGCUAUGUAAAGUU	0.665
CUAUGCUGCAAUAACGGGAGAGAUCCUGUCCAAGGAAGUCUAACGUCUAUAAAAAUGGAGUCACUGGGAUAUCAAUGAAGAAAUCAAACUGUUUAAUUUUAAUUCAGUUG	0.274
ACUCAGGCAAUAAGCGAUUUUAGCUUUAUUUAAAGUCUUCUGUCCAGCUUUAAGCACUUUGUAAGACAUGGCUGAAAGUAGCUUUUCUAUCAGAAUUGCAGAUAGUCAUG	0.288
UAAACAGAAAUGCCAAAUUAUUGAUAGUCAUCGUUGCUGCUUCACAUUAGUAUGAGACUGAUGCAGAAGGAAGCCCAUUCUUCGUGUUCAGUGCUGGGGAUGGGGUGGGG	0.355
CAAACUGUUCAAGUAUUUUUUUUUAAACCUCCCUGUAUAGAAAAAAAUCAUUAAGGAUGUAAAAGCCAUGCUUGCCUAUUUGCUGUAUACAUGUAAUGAAAUUGUAGAUA	2.33

Study 5 — technique: universal PBM; form: double-stranded DNA, one strand shown; medium: in vitro; concentration: not given; reading: higher = stronger binding
Target: Sal-like protein 4, full length isoform B (SALL4, Homo sapiens, UniProt Q9UJQ4-2, residues 1-616)
Setting: 8-mer, flanks averaged, mean of replicates
Sequence	E-score
GTTGCTAA	0.1
ACAATATG	0.324
ATAAACAG	0.242
CGGAAGGC	-0.239
CGTCGGAG	-0.189
CGGATTTA	-0.0433
GAAGTCTC	-0.133
GCGCCATA	0.0339
ATCTCATA	0.242
AGACGCAG	-0.0887
AACGTTCT	0.0962
CTTCAGCA	-0.0896
CGCCCGCA	-0.276
ACCAGACA	0.0432
CTGGATGA	-0.0677
GTTGCCTA	-0.0413
